Measured values from different studies.
Each line is one published result; not all experiments were run side by side. Numbers after ± are the reported error.
Target: Cytochrome P450 2C9 (CYP2C9, Homo sapiens, UniProt P11712)
UniProt P11712, sequence (whole entry, looked up): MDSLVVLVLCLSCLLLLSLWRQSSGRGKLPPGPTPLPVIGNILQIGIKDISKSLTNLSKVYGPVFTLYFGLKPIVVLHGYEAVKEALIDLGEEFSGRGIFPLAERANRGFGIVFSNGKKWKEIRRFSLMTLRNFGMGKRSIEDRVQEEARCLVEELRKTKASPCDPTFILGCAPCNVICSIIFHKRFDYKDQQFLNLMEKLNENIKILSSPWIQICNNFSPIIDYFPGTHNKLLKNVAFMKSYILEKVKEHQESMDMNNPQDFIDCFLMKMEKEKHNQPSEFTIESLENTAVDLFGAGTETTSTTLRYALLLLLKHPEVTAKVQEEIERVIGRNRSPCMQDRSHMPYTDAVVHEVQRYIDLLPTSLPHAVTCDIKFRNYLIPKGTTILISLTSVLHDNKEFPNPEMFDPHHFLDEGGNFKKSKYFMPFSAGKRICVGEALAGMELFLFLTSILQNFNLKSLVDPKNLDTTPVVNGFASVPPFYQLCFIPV

| Compound | assay | test system | conditions | quantity | result |
| --- | --- | --- | --- | --- | --- |
| CN(C(=O)n1cnc(-c2ccc[n+]([O-])c2)c1)C1CCCCC1 | enzyme activity, inhibitor | pooled human liver microsomes | 0.1 to 30 µg/mL | inhibition | no effect |
| CC(C)=CCc1c(O)cc2c(c1O)C(=O)C[C@@H](c1ccc(O)cc1)O2 | – | – | 10 µM, pH 7.4 | inhibition | 63.8 ± 2% |
| C[C@@H](c1ccc2nccn2c1)n1nnc2ncc(-c3cnn(C)c3)nc21 | – | human liver microsomes | 10 and 50 µM, 30 min preincubation, pH 7.4, together with: ± NADPH | time-dependent inhibition | < 20% |
| CCCCC1=NC2(CCCC2)C(=O)N1Cc1ccc(-c2ccccc2S(=O)(=O)Nc2noc(C)c2C)c(COCC)c1 | substrate | recombinant human CYP | – | fraction metabolized | 18.5% |
| CCc1cc(/C(C)=N/OCc2ccc(C3CCCCC3)c(C(F)(F)F)c2)ccc1CN1CC(C(=O)O)C1 | population PK | human, CYP2C9*1/*2, plasma | – | CYP2C9-mediated clearance | 2.52 L/h |
| N#C[C@H](C[C@@H]1CCCNC1=O)NC(=O)[C@H](CC1CC1)NC(=O)c1cc2cccc(Cl)c2[nH]1 | NADPH metabolic stability | – | 2 µM, pH 7.4 | half-life | > 10 min |
| COc1cc(O)c(CC=C(C)C)c(O)c1C(=O)/C=C/c1ccc(O)cc1 | enzyme activity, inhibitor | human liver microsomes | 1 µM, pH 7.4, together with: tolbutamide | inhibition | < 10% |
| C=CC(=O)Nc1cc(Nc2nccc(-c3cn(C)c4ccccc34)n2)c(OCC(F)(F)F)nc1N(C)CCN(C)C | substrate depletion | recombinant human CYP | 1 µM | intrinsic clearance | 0.3 µL/min/pmol |
| CC(C)=CCc1c(O)cc(O)c2c1O[C@H](c1ccc(O)cc1)CC2=O | – | – | 10 µM, pH 7.4 | inhibition | 93 ± 0.6% |
| C[C@H]1CN(C2COC2)CCN1c1ccc(Nc2cc(-c3ccnc(N4CCn5c(cc6c5CC(C)(C)C6)C4=O)c3CO)cn(C)c2=O)nc1 | substrate | recombinant enzyme | 1 µM, 60 min | remaining compound | 85.6 ± 6.6% |

Excerpt of the above:
| Compound | assay | test system | conditions | quantity | result |
| --- | --- | --- | --- | --- | --- |
| COc1cc(O)c(CC=C(C)C)c(O)c1C(=O)/C=C/c1ccc(O)cc1 | enzyme activity, inhibitor | human liver microsomes | 1 µM, pH 7.4, together with: tolbutamide | inhibition | < 10% |
| CC(C)=CCc1c(O)cc(O)c2c1O[C@H](c1ccc(O)cc1)CC2=O | – | – | 10 µM, pH 7.4 | inhibition | 93 ± 0.6% |
